Experimental data collected from several papers.
Protocols differ between the studies behind these lines. ± marks the error that the study gave.
Cell line: MCF7

N=C(N)NCCC[C@H](NC(=O)[C@H](Cc1c[nH]c2ccccc12)NC(=O)[C@H](CCC(N)=O)NC(=O)[C@H](Cc1c[nH]c2ccccc12)NC(=O)[C@H](CCCNC(=N)N)NC(=O)[C@H](Cc1c[nH]c2ccccc12)NC(=O)[C@H](CCC(N)=O)NC(=O)[C@H](Cc1c[nH]c2ccccc12)NC(=O)[C@@H](N)CCCNC(=N)N)C(N)=O  selectivity ratio (baseline: erythrocyte IC50 over MCF7 IC50): > 1.7
COc1ccc(NC(=O)CCc2nc3cc(Cl)ccc3[nH]c2=O)cc1  late apoptotic cells (annexin V-FITC; concentration not given): 6.25%
OC(c1cccc(OC(F)(F)F)c1)c1c[nH]c2ncc(C(F)(F)F)cc12 (stereo not drawn)  inhibition (cell growth or viability; 10 µM, 72 h): 21%
CC(=C(c1ccc(Cl)cc1)c1ccc(OCCN2CCCCC2)cc1)c1ccc(Cl)cc1  inhibition (cell growth or viability; 10 µM): 19.5%
CCS(=O)(=O)Oc1cc(/C=N/NC(=O)c2nc3ccccc3s2)ccc1OC  cell death (cell growth or viability, MTT; 100 µM, 48 h): 53.4%
C[n+]1c(/C=C/c2ccc(N(c3ccccc3)c3ccccc3)cc2)cc(/C=C2\Sc3ccccc3N2CCCN2CCCC2)c2ccccc21  caspase-3 and Bax levels (Western blot; concentration not given, 36 h): increased
NS(=O)(=O)c1ccc(/N=N/c2ccc(O)c(/C=N/c3cc([N+](=O)[O-])ccc3O)c2)cc1  selectivity index (MTT; 72 h; baseline: MCF10A IC50 over MCF7 IC50): 0.53
CCC(=C(c1ccc(Cl)cc1)c1ccc(OCCN2CCCCC2)cc1)c1ccccc1  inhibition (cell growth or viability; 10 µM): 63.1%
C[C@]12CC[C@@H]3c4ccc(OCC(=O)N[C@@H](CCCCNC(=O)CN5CCN(CC(=O)[O-])CCN(CC(=O)[O-])CCN(CC(=O)[O-])CC5)C(=O)O)cc4CC[C@H]3[C@@H]1CCC2=O.[177Lu+3]  internalization (60 min, 37 °C, acid wash pH 5.0; baseline: cell-bound activity): 20%
O=C1c2c(O)cc(O)cc2-c2c(-c3ccc(O)cc3)oc3cc(O)cc1c23  shared downregulated proteins (label-free MS proteomics; concentration not given; baseline: tanespimycin downregulated proteins): 29%
CN1CCN(c2ccc(C(=O)/C=C/Nc3ccc(S(N)(=O)=O)cc3)cc2)CC1  early apoptotic cells (annexin V/PI; concentration not given): 13.9%
CN1CCC2(CC1)C/C(=N\NC(=O)Nc1ccccc1)c1ccccc1O2  apoptotic cells (annexin V-FITC/PI; concentration not given, 24 h, Early apoptosis): 21.7%
COc1ccc(-c2nnc(-c3cc(-c4ccccc4)n(-c4ccc(S(N)(=O)=O)cc4)n3)o2)cc1  mRNA level (real-time PCR, item: bax; concentration not given; baseline: untreated cells): 4.13 fold
CN(C)c1cccc2c(S(=O)(=O)NCCCCCC(=O)NO)cccc12  cells in G2 phase (cell cycle, propidium iodide flow cytometry; 1 µM): 11.3%
CC(=NNC(=S)NN=C(C(=NO)c1ccccc1)c1ccccc1)c1ccccc1  relative protein level (Western blot, item: Bax; IC50 concentration, 24 h; baseline: untreated): 1.74 ± 0.05
NS(=O)(=O)c1ccc(/N=N/c2ccc(O)c(/C=N/c3ccccn3)c2)cc1  selectivity index (MTT; 48 h; baseline: MCF10A IC50 over MCF7 IC50): 6.02
COc1cc2c(=O)c(-c3ccc4c(c3)OCO4)coc2c2c1OC(C)(C)C=C2  apoptotic cells (annexin V/PI flow cytometry; 10 µM, 48 h): 38.8%
CCCCCCCCCCCCCCCC(=O)NCCCC[C@@H](NC(=O)[C@@H](CCCNC(=N)N)NC(=O)[C@@H](CC(N)=O)NC(=O)[C@@H](CC(N)=O)NC(=O)[C@@H](CO)NC(=O)[C@@H](CCCNC(=N)N)NC(=O)[C@@H](CC(C)C)NC(=O)CNC(=O)[C@@H](CC(N)=O)NC(=O)CNC(=O)[C@H](NC(=O)[C@@H](CC(C)C)NC(=O)[C@@H](Cc1ccc(O)cc1)NC(C)=O)C(C)C)C(N)=O  TGI (48 h, 1% FBS): 400 ± 20 nM
